Published values collected from several papers.
Protocols differ between the studies behind these lines. Several values in a cell are separate wells, animals, samples, runs or records. ± gives the spread as reported.
Gria1/Gria2: Glutamate receptor AMPA 1/2 (Gria1/Gria2, Rattus norvegicus, UniProt P19490+P19491)
Sodium- and chloride-dependent glycine transporter 2: Sodium- and chloride-dependent glycine transporter 2 (Homo sapiens, UniProt Q9Y345)
IL1RL2: Interleukin-1 receptor-like 2 (IL1RL2, Homo sapiens, UniProt Q9HB29)

Structure (SMILES)	target or system	test	system	conditions	how to read	endpoint	result
C[C@](C(=O)NC1CCOCC1)(c1cncnc1)N(C(=O)[C@H](F)Cl)c1ccc(OC(F)(F)Cl)cc1	F11 (Homo sapiens, UniProt P03951)	enzyme activity, inhibitor		10 µM		remaining activity	104%
C=CC(=O)N1CCCC(n2c(=O)c3ncccc3n(Cc3ccc(Oc4ccccc4)cc3)c2=O)C1 (stereo not drawn)	Host cell factor 1 (Homo sapiens, UniProt P51610)	thermal proteome profiling, refers to: HCFC1		unit not given	relative to: vehicle	melting temperature shift	-5.16
COc1ccn2c(C(C)=O)cc(C(=O)Nc3cc(C(C)O)cc(-c4cnn(C5CC5)c4)c3F)c2c1 (stereo not drawn)	BRD9 (Homo sapiens, UniProt Q9H8M2)	thermal stability, DSF		200 µM		ΔTm	3.8 °C
COc1ccccc1-c1ccncc1C(=O)Nc1nnc(OCc2ccc(Cl)cc2)s1	DNA polymerase theta, helicase domain (POLQ, Homo sapiens, UniProt O75417)	ATPase activity, ADP-Glo		0.24 µM, added: ATP 400 µM		remaining activity	34%
COC(=O)Cc1cc2c(cc1C(=O)c1cccc(I)c1)OCO2	Gria1/Gria2	glutamate-evoked current, whole-cell patch clamp	HEK-293T	concentration not given, pH 7.4, holding potential -60 mV, added: 10 mM glutamate		current amplitude	320 ± 38 pA
COc1ccc(C(=O)NC2CCN(Cc3ccccc3)CC2)cc1	Sodium- and chloride-dependent glycine transporter 2	MS binding competition		10 µM		remaining specific binding	94.3 ± 5.3%
O=C(OCCCCOP(=O)(O)OP(=O)(O)OP(=O)(O)O)c1ccccc1	POLL (Homo sapiens, UniProt Q9UGP5)	substrate		AP-site template, wild type	relative to: dCTP over compound	efficiency relative to dCTP	380 fold
O=C(Nc1cc(-c2ccccn2)n[nH]1)N1CC[C@@H](Oc2ccc(F)cc2)C1	Trypanosoma cruzi	reporter mRNA translation, inhibitor, refers to: capped polyadenylated Renilla luciferase mRNA	cell-free extract	concentration not given	relative to: control RNA	relative translation	119%
CCCCCC(O)/C=C/C=O (stereo not drawn)	HDAC6 (Homo sapiens, UniProt Q9UBN7)	competitive isoTOP-ABPP	Ramos soluble proteome	100 µM, added: iodoacetamide probe	relative to: DMSO over compound-treated, higher = stronger cysteine blockade	isoTOP-ABPP competition ratio	1.1
O=C(NC1CCN(Cc2ccccc2)CC1)c1cccc(-c2ccccc2)c1	Sodium- and chloride-dependent glycine transporter 2	MS binding competition		10 µM		remaining specific binding	92.2 ± 3.5%
CC(C)(C(=O)N1CCC(Nc2nc3c(c(=O)[nH]2)CCCC3)CC1)c1ccc(Cl)cc1	MRGPRD (Homo sapiens, UniProt Q8TDS7)	beta-arrestin recruitment, agonist, PRESTO-Tango				Hill slope	3.54
COc1cc2ncnc(Nc3ccc(-c4ccccc4)cc3)c2cc1OC	SMUG1 (Homo sapiens, UniProt Q53HV7)	enzyme activity, activator, fluorescence		20 µM	relative to: control	activity	220 ± 20%
CCCCCCCCCCCCCCCC(=O)NCCCC[C@H](NC(=O)[C@H](CCC(=O)O)NC(=O)[C@H](Cc1ccc(O)cc1)NC(=O)[C@H](CCC(=O)O)NC(=O)COCC(=O)NCCCOCCOCCOCCCNC(=O)[C@H](Cc1c[nH]c2ccccc12)NC(=O)[C@H](CCCCN)NC(=O)[C@H](C)NC(=O)[C@H](CCCCNC(=N)N)NC(=O)[C@H](CCC(N)=O)NC(=O)[C@H](Cc1c[nH]cn1)NC(=O)[C@H](CCSC)NC(=O)[C@H](CC(C)C)NC(=O)[C@H](CCC(N)=O)NC(=O)[C@@H](NC(=O)[C@H](CCC(=O)O)NC(=O)C(C)(C)NC(=O)[C@@H](NC(=O)C(C)(C)N)C(C)C)[C@@H](C)CC)C(=O)N[C@@H](CCC(=O)O)C(=O)N[C@@H](Cc1ccc(O)cc1)C(=O)N[C@@H](CCC(=O)O)C(N)=O	PTH1R (Homo sapiens, UniProt Q03431)	agonist	Saos-2 with cAMP reporter	3.16 pM, 30 min, ligand-on phase	higher = more cAMP	cAMP luminescence AUC	1.6 a.u.
CN(C)CCCSC(=S)N1CCN(C(=O)/C=C/c2coc3ccccc3c2=O)CC1	Nucleoprotein (N, Tomato spotted wilt virus, UniProt P25999)	immunoblot, refers to: N protein		concentration not given, 100 min, 25 °C, added: RNA	relative to: level at 0 min	relative protein level	0.866 and 0.735 and 0.72
CC(C)[C@@H]1NC(=O)[C@H](Cc2ccccc2)NC(=O)CSC[C@@H](C(N)=O)NC(=O)[C@H](CCC(=O)O)NC(=O)[C@H](CO)NC(=O)[C@H](Cc2c[nH]c3cccc(Cl)c23)NC(=O)[C@H](C2CCCCC2)NC(=O)[C@H](C(C)C)NC(=O)[C@H](Cc2ccc(O)cc2)NC(=O)[C@H](CC(=O)O)NC(=O)[C@H](Cc2c[nH]c3ccccc23)NC(=O)[C@H](Cc2ccc(N)nc2)NC(=O)[C@H](Cc2c[nH]c3ccc(Cl)cc23)NC(=O)[C@H](CCC(=O)O)NC1=O	IL1RL2	reporter gene	HEK-Blue IL-36R	1.23 µM, 6 h, added: IL-36γ 0.01 ng/mL	relative to: stimulated without compound	remaining activity	-2.5%
CN(C)CCCN(C(=O)c1nc2ccccc2s1)c1nc2ccc(F)cc2s1	Trypanosoma cruzi	reporter mRNA translation, inhibitor, refers to: capped polyadenylated Renilla luciferase mRNA	cell-free extract	concentration not given	relative to: control RNA	relative translation	102%
N#Cc1cnc2sc(C(=O)O)cc2c1N1CCc2[nH]nc(C(=O)N[C@@H](CC(=O)NCCOCCN3CCOCC3)c3cccc(Br)c3)c2C1	IL1RL2	reporter gene (SEAP), inhibitor, HEK-Blue IL-36R reporter	HEK-Blue IL-36R cells	1.23 µM, 6 h, added: IL36G 0.01 ng/mL		remaining activity	61.3%
COC(=O)Cc1cc2c(cc1C(=O)c1ccccc1I)OCO2	Gria1/Gria2	glutamate-evoked current, whole-cell patch clamp	HEK-293T	concentration not given, glutamate alone after washout, added: glutamate		current amplitude after recovery	519 ± 32 pA
CCCCCC=CC=C1C(=O)C=CC1CC=CCCCC(=O)O (stereo not drawn)	T-complex protein 1 subunit eta (Homo sapiens, UniProt Q99832)	competitive isoTOP-ABPP, refers to: CCT7 cysteine peptide	Ramos soluble proteome	100 µM, added: iodoacetamide probe	relative to: DMSO over compound-treated, higher = stronger cysteine blockade	isoTOP-ABPP competition ratio	2
C#CCCCCNC(=O)c1ccc(N(C(=O)C=C)c2ccc(Br)cc2)cc1	Transient receptor potential cation channel subfamily V member 2 (Homo sapiens, UniProt Q9Y5S1)	mass spectrometry profiling, refers to: TRPV2	H460 cell lysate	100 µM over 10 µM, UniProt Q9Y5S1	relative to: high over low concentration	reactivity ratio	1.59
CCCCCCCCCCCCCCCc1cccc(OCC)c1C(=O)Nc1ccc(Cl)c(C(F)(F)F)c1	KAT5 (Homo sapiens, UniProt Q92993)	SPR		1.85 µM	higher = more binding	SPR binding response	0.163 RU
CC(=O)c1cnc(NS(=O)(=O)c2ccc(C(F)(F)F)c(Cl)c2)nc1	17-beta-hydroxysteroid dehydrogenase 13 (Homo sapiens, UniProt Q7Z5P4)	enzyme activity	human hepatocytes, scramble siRNA, culture medium	96 h	relative to: scramble siRNA control	oxidized product ratio	0.41 and 0.397 and 0.372 and 0.381
CN(Cc1cc(C2CC2)on1)C(=O)c1cccc(-c2ccc3c(c2)CCO3)c1	Acetyl-coenzyme A synthetase 2 (ACS2, Candida albicans, UniProt Q8NJN3)	enzyme activity, inhibitor, coupled pyrophosphate		125 µM	higher is more activity	reaction rate	0.00235 a.u.
CCOC(=O)c1ccc2c(c1)C1CC(C)(N2)c2c(C)nc3ccc(C(=O)OCC)cc3c21 (single isomer, unassigned)	Glideosome-associated protein 50 (GAP50, Plasmodium falciparum, UniProt Q8I2X3)	differential scanning fluorimetry				ΔTm	-6 °C
O=C1c2sc(-c3ccc(N4CCC(CO)CC4)nc3F)nc2CCN1c1cccnc1	TAR DNA-binding protein 43, aggregated (TARDBP, Homo sapiens, UniProt Q13148)	binding, surface plasmon resonance	brain-derived TDP-43 aggregates	37.5 nM		SPR response	2.66 RU
OC[C@@H]1[C@@H](O)[C@H](O)[C@@H](O)c2nccn21	bglA (Thermotoga maritima, UniProt Q08638)	ITC		concentration not given, pH 6.8, 25 °C		binding stoichiometry	0.96 ± 0.03
CC(C)Oc1cc(Cl)ccc1CNc1cc(-c2ccccc2)nc2ncnn12	GPR3 (Homo sapiens, UniProt P46089, V196W)	cAMP level, cAMP GloSensor		10 pM	higher = more cAMP	cAMP luminescence	50600 a.u. and 31500 a.u. and 46100 a.u. and 30900 a.u.
CC(=O)NCCCC[C@H](NC(=O)CNC(=O)CNC(=O)[C@@H](NC(=O)[C@H](CO)NC(=O)[C@H](CCCCN)NC(=O)[C@H](CCCNC(=N)N)NC(=O)[C@H](C)NC(=O)[C@@H](NC(=O)[C@H](CCC(N)=O)NC(=O)[C@H](CCCCN)NC(=O)[C@@H](NC(=O)[C@@H](N)CCCNC(=N)N)[C@@H](C)O)[C@@H](C)O)[C@@H](C)O)C(=O)N[C@@H](C)C(=O)N1CCC[C@H]1C(=O)N[C@@H](CCCNC(=N)N)C(=O)N[C@@H](CCCCN)C(=O)N[C@@H](CCC(N)=O)C(=O)O	YEATS domain-containing protein 4 (Homo sapiens, UniProt O95619, E109A)	differential scanning fluorimetry		added: 50 µM peptide	relative to: buffer-only reference	ΔTm	0.19 ± 0.03 °C
COC(=O)[C@@]1(C)C=C(C(=O)Nc2cccc(C(=O)Nc3ccc(Nc4nccc(-c5cccnc5)n4)c(C)c3)c2)C(=O)CC1	MAPK8 (Homo sapiens, UniProt P45983)	enzyme activity, inhibitor		8.36e-05 µM, 0 h, unit not given, added: GSH 10 mM pre-incubation	relative to: vehicle	remaining activity	1.03
O=C(O)Cc1cc2c(cc1C(=O)c1ccccc1Br)OCO2	Gria1/Gria2	whole-cell patch clamp	HEK-293T	concentration not given, added: glutamate		deactivation time constant	5.6 ± 0.3 ms

Excerpt of the above:
Structure (SMILES)	target or system	test	system	conditions	how to read	endpoint	result
CCCCCC(O)/C=C/C=O (stereo not drawn)	HDAC6 (Homo sapiens, UniProt Q9UBN7)	competitive isoTOP-ABPP	Ramos soluble proteome	100 µM, added: iodoacetamide probe	relative to: DMSO over compound-treated, higher = stronger cysteine blockade	isoTOP-ABPP competition ratio	1.1
N#Cc1cnc2sc(C(=O)O)cc2c1N1CCc2[nH]nc(C(=O)N[C@@H](CC(=O)NCCOCCN3CCOCC3)c3cccc(Br)c3)c2C1	IL1RL2	reporter gene (SEAP), inhibitor, HEK-Blue IL-36R reporter	HEK-Blue IL-36R cells	1.23 µM, 6 h, added: IL36G 0.01 ng/mL		remaining activity	61.3%
O=C(NC1CCN(Cc2ccccc2)CC1)c1cccc(-c2ccccc2)c1	Sodium- and chloride-dependent glycine transporter 2	MS binding competition		10 µM		remaining specific binding	92.2 ± 3.5%
CCCCCCCCCCCCCCCC(=O)NCCCC[C@H](NC(=O)[C@H](CCC(=O)O)NC(=O)[C@H](Cc1ccc(O)cc1)NC(=O)[C@H](CCC(=O)O)NC(=O)COCC(=O)NCCCOCCOCCOCCCNC(=O)[C@H](Cc1c[nH]c2ccccc12)NC(=O)[C@H](CCCCN)NC(=O)[C@H](C)NC(=O)[C@H](CCCCNC(=N)N)NC(=O)[C@H](CCC(N)=O)NC(=O)[C@H](Cc1c[nH]cn1)NC(=O)[C@H](CCSC)NC(=O)[C@H](CC(C)C)NC(=O)[C@H](CCC(N)=O)NC(=O)[C@@H](NC(=O)[C@H](CCC(=O)O)NC(=O)C(C)(C)NC(=O)[C@@H](NC(=O)C(C)(C)N)C(C)C)[C@@H](C)CC)C(=O)N[C@@H](CCC(=O)O)C(=O)N[C@@H](Cc1ccc(O)cc1)C(=O)N[C@@H](CCC(=O)O)C(N)=O	PTH1R (Homo sapiens, UniProt Q03431)	agonist	Saos-2 with cAMP reporter	3.16 pM, 30 min, ligand-on phase	higher = more cAMP	cAMP luminescence AUC	1.6 a.u.
CC(C)[C@@H]1NC(=O)[C@H](Cc2ccccc2)NC(=O)CSC[C@@H](C(N)=O)NC(=O)[C@H](CCC(=O)O)NC(=O)[C@H](CO)NC(=O)[C@H](Cc2c[nH]c3cccc(Cl)c23)NC(=O)[C@H](C2CCCCC2)NC(=O)[C@H](C(C)C)NC(=O)[C@H](Cc2ccc(O)cc2)NC(=O)[C@H](CC(=O)O)NC(=O)[C@H](Cc2c[nH]c3ccccc23)NC(=O)[C@H](Cc2ccc(N)nc2)NC(=O)[C@H](Cc2c[nH]c3ccc(Cl)cc23)NC(=O)[C@H](CCC(=O)O)NC1=O	IL1RL2	reporter gene	HEK-Blue IL-36R	1.23 µM, 6 h, added: IL-36γ 0.01 ng/mL	relative to: stimulated without compound	remaining activity	-2.5%
